{"data": "Measured values pooled from the literature", "organism": "Staphylococcus epidermidis", "note": "Each line is one published result; not all experiments were run side by side. Numbers after ± are the reported error."}
{"Compound": "CCOC(=O)c1c(N)csc1-c1cn(-c2ccccc2)nc1-c1ccc(C)cc1", "test": "broth microdilution", "test system": "clinical urinary isolate", "setting": "compound gamma-irradiated 10 kGy", "MIC": "0.124 ± 0.5 µg/mL"}
{"Compound": "Cc1ccc(C(C)C)cc1.Cc1ccc(C(C)C)cc1.[Cl][Ru][Cl].[Cl][Ru][Cl]", "test": "broth microdilution", "test system": "ATCC 12228", "setting": "37 °C", "MIC": "> 1000 µg/mL"}
{"Compound": "CCc1cc(=O)c2c(OCC(O)CNC(C)(C)C)c3ccoc3c(OC)c2o1 (stereo not drawn)", "test": "broth microdilution", "test system": "ATCC 12228", "setting": "19 h, 35 °C", "MIC": "> 256 µg/mL"}
{"Compound": "CN[C@H](CC(C)C)C(=O)N[C@H]1C(=O)N[C@@H](CC(N)=O)C(=O)N[C@H]2C(=O)N[C@H]3C(=O)N[C@H](C(=O)N[C@H](C(=O)O)c4cc(O)cc(O)c4-c4cc3ccc4O)[C@H](O)c3ccc(c(Cl)c3)Oc3cc2cc(c3O[C@@H]2O[C@H](CO)[C@@H](O)[C@H](O)[C@H]2O[C@H]2C[C@](C)(N)[C@H](O)[C@H](C)O2)Oc2ccc(cc2Cl)[C@H]1O", "test": "E-test, classical method", "test system": "Mueller-Hinton agar", "setting": "24 h", "MIC": "2 µg/mL"}
{"Compound": "CCCCCCCCCC(=O)N[C@@H](CCCCN)CN1CC(=O)N(c2ccc(N3CN(C[C@H](CCCCN)NC(=O)CCCCCCCCC)CC3=O)cc2)C1", "test": "microbial growth", "test system": "MRSE", "setting": "drug-resistant strain", "MIC": "< 6 µg/mL"}
{"Compound": "CCc1cc(=O)c2c(O)c3ccoc3c(OC)c2o1", "test": "broth microdilution", "test system": "ATCC 12228", "setting": "19 h, 35 °C", "MIC": "64 µg/mL"}
{"Compound": "CC[C@H](C)[C@H](NC(=O)[C@H](Cc1c[nH]cn1)NC(=O)[C@H](Cc1c[nH]cn1)NC(=O)[C@H](Cc1ccccc1)NC(=O)[C@@H](N)Cc1ccccc1)C(=O)N[C@@H](Cc1ccccc1)C(=O)N[C@@H](CCCNC(=N)N)C(=O)NCC(=O)N[C@@H](CCCCN)C(=O)N[C@H](C(=O)N[C@@H](Cc1c[nH]cn1)C(=O)N[C@H](C(=O)NCC(=O)N[C@@H](CCCCN)C(=O)N[C@H](C(=O)N[C@H](C(=O)N[C@@H](Cc1c[nH]cn1)C(=O)N[C@@H](CCCNC(=N)N)C(=O)N[C@@H](CC(C)C)C(=O)N[C@H](C(=O)N[C@H](C(=O)NCC(N)=O)[C@@H](C)O)C(C)C)[C@@H](C)CC)[C@@H](C)O)C(C)C)C(C)C", "test": "broth microdilution", "test system": "ATCC 1435", "setting": "18 h, 37 °C", "MIC": "3.1 µg/mL"}
{"Compound": "CCc1cc(=O)c2c(OCC(O)CN3CCOCC3)c3ccoc3c(OC)c2o1 (stereo not drawn)", "test": "broth microdilution", "test system": "ATCC 12228", "setting": "19 h, 35 °C", "MIC": "> 256 µg/mL"}
{"Compound": "Cc1cc(C)n(C(N)=S)n1.Cc1ccc(C(C)C)cc1.[Cl][Ru][Cl]", "test": "broth microdilution", "test system": "ATCC 12228", "setting": "37 °C", "MIC": "62.5 µg/mL"}
{"note": "Some of these lines once more:"}
{"Compound": "Cc1ccc(C(C)C)cc1.Cc1ccc(C(C)C)cc1.[Cl][Ru][Cl].[Cl][Ru][Cl]", "test": "broth microdilution", "test system": "ATCC 12228", "setting": "37 °C", "MIC": "> 1000 µg/mL"}
